Measured values collected from several papers.
± gives the spread as reported.
Organism: Plasmodium falciparum

O=C(O)[C@@H]1Cc2c([nH]c3ccccc23)[C@@H](c2ccc(I)cc2F)N1 gave an IC50 of 3.34 ± 0.496 µM (parasite growth; Dd2; 72 h).
COc1ccc(-c2cn(C3CCCC3)c3ncnc(N)c23)cc1 gave an IC50 of 9.8 µM (merozoite invasion of erythrocytes; FVO).
For COc1cc(O)c(-c2cc(-c3cc(-c4c(O)cc(OC)c5c4C[C@@H](C)N[C@@H]5C)c4cc(C)cc(OC)c4c3O)c(O)c3c(OC)cc(C)cc23)c2c1[C@@H](C)N[C@H](C)C2, the IC50 was 0.184 µM (parasite growth, SYBR Green; W2; 96 h, drug-resistant strain, blood stage).
For CC(C)C1=CC(=CNC2CCCCCC2)N=C1c1ccc[nH]1, the IC50 was 1.98 µM (parasite growth; 7G8, chloroquine-resistant).
With CC[C@H](C)[C@@H]1NC(=O)[C@H](CCCCN)NC(=O)[C@H](CCCCN)NC(=O)[C@H](Cc2ccc(O)cc2)NC(=O)[C@H](CC(C)C)NC(=O)[C@@H]2CCCN2C(=O)CNC(=O)CNC(=O)[C@@H](NC(=O)CN)CSSC[C@@H](C(=O)N[C@@H](CCC(=O)O)C(=O)N[C@@H](CO)C(N)=O)NC(=O)[C@H](CC(C)C)NC(=O)[C@H](CCCCN)NC(=O)[C@H](CCCCN)NC(=O)[C@H]([C@@H](C)CC)NC(=O)[C@H]([C@@H](C)CC)NC(=O)[C@H](CCCCN)NC(=O)[C@H](CCCCN)NC(=O)[C@H](Cc2ccc(O)cc2)NC(=O)[C@H](CC(C)C)NC(=O)[C@@H]2CCCN2C(=O)[C@H](C)NC(=O)CNC(=O)CNC(=O)[C@H](CO)NC(=O)CNC(=O)CNC(=O)[C@H](CO)NC(=O)[C@H](CCCCN)NC(=O)[C@H](CC(C)C)NC(=O)[C@H](CC(C)C)NC(=O)[C@H](CCCCN)NC(=O)[C@H](CCCCN)NC(=O)[C@H]([C@@H](C)CC)NC1=O the IC50 was 12.5 ± 1.1 µM (parasite growth; 3D7; 72 h, 5% serum plus Albumax II).
COc1cc2c3cc1Oc1cc(ccc1O)CC1c4c(cc(OC)c(O)c4Oc4ccc(cc4)CC3N(C)CC2)CCN1C (stereo not shown) has an IC50 of 3.01 ± 0.269 µM (parasite growth, SYBR green I; Cam3.1 R539T (MRA1240)).
With OCCCCCCCCCCOCCCc1cccnc1 the IC50 was 14.7 ± 0.2 µM (anti-HRPII ELISA; W2 chloroquine-resistant; 72 h).
COC1=CC(c2ccc[nH]2)=NC1=CNC1CCC1 has an IC50 of 0.156 µM (parasite growth; 7G8, chloroquine-resistant).
The IC50 of CC[C@H](C)[C@@H]1NC(=O)[C@H](CCCCN)NC(=O)[C@H](CCCCN)NC(=O)[C@H](Cc2c[nH]c3ccccc23)NC(=O)[C@H](CC(C)C)NC(=O)[C@@H]2CCCN2C(=O)[C@H](C)NC(=O)CNC(=O)CNC(=O)[C@H](CO)NC(=O)CNC(=O)CNC(=O)[C@H](CO)NC(=O)[C@H](CCC(=O)O)NC(=O)[C@H](CC(C)C)NC(=O)[C@H](CC(C)C)NC(=O)[C@H](CCCCN)NC(=O)[C@H](CCCCN)NC(=O)[C@H]([C@@H](C)CC)NC(=O)[C@H]([C@@H](C)CC)NC(=O)[C@H](CCCCN)NC(=O)[C@H](CCCCN)NC(=O)[C@H](Cc2c[nH]c3ccccc23)NC(=O)[C@H](CC(C)C)NC(=O)[C@@H]2CCCN2C(=O)CNC(=O)CNC(=O)[C@@H](NC(=O)CN)CSSC[C@@H](C(N)=O)NC(=O)[C@H](CC(C)C)NC(=O)[C@H](CCCCN)NC(=O)[C@H](CCCCN)NC(=O)[C@H]([C@@H](C)CC)NC1=O is reported as 2.2 ± 0.1 µM (parasite growth; 3D7; 72 h, Albumax II medium, no serum).
The IC50 of C1=CC(c2ccc[nH]2)=NC1=CNC1CCCCCC1 is reported as over 2.5 µM (parasite growth; 7G8, chloroquine-resistant).
The IC50 of CCC1(c2ccccc2)OOC2(CCN(C(=O)c3ccccc3)CC2)OO1 is reported as 0.0184 µM (parasite growth, imaging; 3D7; 48 h, blood stage).
With COC(=O)c1cc2c([nH]c3ccccc32)c(-c2ccc3c(c2)OCO3)n1 the IC50 was 9.04 µg/mL (parasite growth; 48 h, drug-resistant strain, blood stage).
COc1cc(O)c(-c2cc(-c3c(C)cc(O)c4c(OC)ccc(-c5c(O)cc(OC)c6c5C[C@@H](C)N(C)[C@@H]6C)c34)c(O)c3c(OC)cc(C)cc23)c2c1[C@@H](C)N(C)[C@H](C)C2 gave an IC50 of 0.006 µM (parasite growth; K1; drug-resistant strain, blood stage).
With COc1ccc2cc1Oc1cc3c(cc1OC)CCN(C)C3Cc1ccc(cc1)Oc1c(O)c(OC)cc3c1C(C2)N(C)CC3 (stereo not shown) the IC50 was at most 1.5 µM (parasite growth, SYBR Green I; 3D7, INDO and Cam3.1 R539T).
For CCc1c(C)[nH]c(C=NC23CC4CC(CC(C4)C2)C3)c1C, the IC50 was 0.08 µM (parasite growth; Dd2, chloroquine-resistant).
For CC[C@H](C)[C@@H]1NC(=O)[C@H](CCCCN)NC(=O)[C@H](CCCCN)NC(=O)[C@H](Cc2ccc(O)cc2)NC(=O)[C@H](CC(C)C)NC(=O)[C@@H]2CCCN2C(=O)[C@H](C)NC(=O)CNC(=O)CNC(=O)[C@H](CO)NC(=O)CNC(=O)CNC(=O)[C@H](CO)NC(=O)[C@H](CCC(=O)O)NC(=O)[C@H](CC(C)C)NC(=O)[C@H](CC(C)C)NC(=O)[C@H](CCCCN)NC(=O)[C@H](CCCCN)NC(=O)[C@H]([C@@H](C)CC)NC(=O)[C@H]([C@@H](C)CC)NC(=O)[C@H](CCCCN)NC(=O)[C@H](CCCCN)NC(=O)[C@H](Cc2ccc(O)cc2)NC(=O)[C@H](CC(C)C)NC(=O)[C@@H]2CCCN2C(=O)[C@H](C)NC(=O)CNC(=O)[C@@H]2CSSC[C@H](NC(=O)[C@H](CC(C)C)NC(=O)[C@H](CCCCN)NC(=O)[C@H](CCCCN)NC(=O)[C@H]([C@@H](C)CC)NC1=O)C(=O)N[C@@H](CCC(N)=O)C(=O)N[C@@H](CC(N)=O)C(=O)NCC(=O)N2, the IC50 was 24.7 ± 3 µM (parasite growth; 3D7; 72 h, 5% serum plus Albumax II).
The IC50 of Cc1ccc2c(c1)[n+]([O-])c(C#N)c(-c1ccco1)[n+]2[O-] is reported as 0.56 ± 0.01 µM (parasite growth, [3H]hypoxanthine incorporation; K1 chloroquine-resistant).
C#CCOc1ccc(C=NNC(=N)NN=Cc2ccc(OCC#C)cc2)cc1 gave an IC50 of 0.153 µM (parasite growth, SYBR Green; SB1-A6, respiratory inhibitor resistant; 72 h).
CC[C@H](C)[C@@H]1NC(=O)[C@H](CCCCN)NC(=O)[C@H](CCCCN)NC(=O)[C@H](Cc2ccc(O)cc2)NC(=O)[C@H](CC(C)C)NC(=O)[C@@H]2CCCN2C(=O)CNC(=O)CNC(=O)[C@@H](NC(=O)CN)CSSC[C@@H](C(=O)N[C@@H](CCCCN)C(=O)N[C@@H](CO)C(N)=O)NC(=O)[C@H](CC(C)C)NC(=O)[C@H](CCCCN)NC(=O)[C@H](CCCCN)NC(=O)[C@H]([C@@H](C)CC)NC(=O)[C@H]([C@@H](C)CC)NC(=O)[C@H](CCCCN)NC(=O)[C@H](CCCCN)NC(=O)[C@H](Cc2ccc(O)cc2)NC(=O)[C@H](CC(C)C)NC(=O)[C@@H]2CCCN2C(=O)[C@H](C)NC(=O)CNC(=O)CNC(=O)[C@H](CO)NC(=O)CNC(=O)CNC(=O)[C@H](CO)NC(=O)[C@H](CCCCN)NC(=O)[C@H](CC(C)C)NC(=O)[C@H](CC(C)C)NC(=O)[C@H](CCCCN)NC(=O)[C@H](CCCCN)NC(=O)[C@H]([C@@H](C)CC)NC1=O gave an IC50 of 3.7 ± 0.2 µM (parasite growth; 3D7; 72 h, Albumax II medium, no serum).
C[C@@H](C[C@@H](O)[C@H](O)C(C)(C)O)[C@@H]1CC[C@]2(C)C3=CC[C@H]4C(C)(C)C(=O)CC[C@]4(C)[C@H]3CC[C@@]12C gave an IC50 of 36.3 ± 4.4 µM ([3H]hypoxanthine incorporation; W2, chloroquine-resistant).
O=C(C=CC(Cc1ccccc1)Nc1ccnc2cc(Cl)ccc12)NCCN1CCOCC1 (stereo not shown) has an IC50 of 0.282 µM (parasite growth; K1; drug-resistant strain, blood stage).
With CCCCCCCCCCCCCCCCC1CC(=O)NCCCN(C)CCCCN(C)CCCN1C (stereo not shown) the IC50 was 0.18 µg/mL (parasite LDH; W2 chloroquine-resistant; 72 h).
With CCCCCCN=Cc1[nH]c(-c2ccc[nH]2)cc1OC the IC50 was 0.037 µM (parasite growth; Dd2, chloroquine-resistant).
Cc1ccc(C(C)C)cc1.Clc1ccc2c(NCCNCc3ccccn3)ccnc2c1.[Cl-].[Cl][Ru+] gave an IC50 of 21.9 ± 1 µM (parasite growth, parasite lactate dehydrogenase; Dd2 chloroquine-resistant).
COC1=CC(c2ccc[nH]2)=NC1=CNC12CC3CC(CC(C3)C1)C2 gave an IC50 of 0.0038 µM (parasite growth; 7G8, chloroquine-resistant).
CC[C@H](C)[C@@H]1NC(=O)[C@H](CCCCN)NC(=O)[C@H](CCCCN)NC(=O)[C@H](Cc2ccc(O)cc2)NC(=O)[C@H](CC(C)C)NC(=O)[C@@H]2CCCN2C(=O)[C@H](C)NC(=O)CNC(=O)CNC(=O)[C@H](CO)NC(=O)CNC(=O)CNC(=O)[C@H](CO)NC(=O)[C@H](CCC(=O)O)NC(=O)[C@H](CC(C)C)NC(=O)[C@H](CC(C)C)NC(=O)[C@H](CCCCN)NC(=O)[C@H](CCCCN)NC(=O)[C@H]([C@@H](C)CC)NC(=O)[C@H]([C@@H](C)CC)NC(=O)[C@H](CCCCN)NC(=O)[C@H](CCCCN)NC(=O)[C@H](Cc2ccc(O)cc2)NC(=O)[C@H](CC(C)C)NC(=O)[C@@H]2CCCN2C(=O)CNC(=O)CNC(=O)[C@@H](NC(=O)CN)CSSC[C@@H](C(N)=O)NC(=O)[C@H](CC(C)C)NC(=O)[C@H](CCCCN)NC(=O)[C@H](CCCCN)NC(=O)[C@H]([C@@H](C)CC)NC1=O has an IC50 of 6.4 ± 0.2 µM (parasite growth; 3D7; 72 h, Albumax II medium, no serum).
COC1=CC(c2ccc[nH]2)=NC1=CNC1CCCC1 has an IC50 of 0.084 µM (parasite growth; Dd2, chloroquine-resistant).
With CC(C)(C)c1cc(CN(Cc2ccccn2)Cc2ccccn2)c(O)c(CN(Cc2ccccn2)Cc2ccccn2)c1 the IC50 was 0.103 ± 0.008 µM (growth, [3H]hypoxanthine incorporation; HB3 chloroquine-sensitive; 48 h).
The IC50 of C=CC1CN2CCC1CC2C(OC(=O)NCCCCCCNC(=O)OC(c1ccnc2ccc(OC)cc12)C1CC2CCN1CC2C=C)c1ccnc2ccc(OC)cc12 (stereo not shown) is reported as 0.232 ± 0.0311 µM (parasite growth; P31, chloroquine-resistant).
For CCC1=C(C)C(=CNC2CCCCCCC2)N=C1c1ccc[nH]1, the IC50 was 0.06 µM (parasite growth; Dd2, chloroquine-resistant).
CC[C@H](C)[C@@H]1NC(=O)[C@H](CCCCN)NC(=O)[C@H](CCCCN)NC(=O)[C@H](Cc2ccc(O)cc2)NC(=O)[C@H](CC(C)C)NC(=O)[C@@H]2CCCN2C(=O)[C@H](C)NC(=O)CNC(=O)CNC(=O)[C@H](CO)NC(=O)CNC(=O)CNC(=O)[C@H](CO)NC(=O)[C@H](CCC(=O)O)NC(=O)[C@H](CC(C)C)NC(=O)[C@H](CC(C)C)NC(=O)[C@H](CCCCN)NC(=O)[C@H](CCCCN)NC(=O)[C@H]([C@@H](C)CC)NC(=O)[C@H]([C@@H](C)CC)NC(=O)[C@H](CCCCN)NC(=O)[C@H](CCCCN)NC(=O)[C@H](Cc2ccc(O)cc2)NC(=O)[C@H](CC(C)C)NC(=O)[C@@H]2CCCN2C(=O)[C@H](C)NC(=O)CNC(=O)[C@@H]2CSSC[C@H](NC(=O)[C@H](CC(C)C)NC(=O)[C@H](CCCCN)NC(=O)[C@H](CCCCN)NC(=O)[C@H]([C@@H](C)CC)NC1=O)C(=O)N[C@@H](CCC(=O)O)C(=O)N[C@@H](CO)C(=O)NCC(=O)N2 gave an IC50 of 26.3 ± 1.9 µM (parasite growth; 3D7; 72 h, Albumax II medium, no serum).

Excerpt of the above:
The IC50 of CC[C@H](C)[C@@H]1NC(=O)[C@H](CCCCN)NC(=O)[C@H](CCCCN)NC(=O)[C@H](Cc2c[nH]c3ccccc23)NC(=O)[C@H](CC(C)C)NC(=O)[C@@H]2CCCN2C(=O)[C@H](C)NC(=O)CNC(=O)CNC(=O)[C@H](CO)NC(=O)CNC(=O)CNC(=O)[C@H](CO)NC(=O)[C@H](CCC(=O)O)NC(=O)[C@H](CC(C)C)NC(=O)[C@H](CC(C)C)NC(=O)[C@H](CCCCN)NC(=O)[C@H](CCCCN)NC(=O)[C@H]([C@@H](C)CC)NC(=O)[C@H]([C@@H](C)CC)NC(=O)[C@H](CCCCN)NC(=O)[C@H](CCCCN)NC(=O)[C@H](Cc2c[nH]c3ccccc23)NC(=O)[C@H](CC(C)C)NC(=O)[C@@H]2CCCN2C(=O)CNC(=O)CNC(=O)[C@@H](NC(=O)CN)CSSC[C@@H](C(N)=O)NC(=O)[C@H](CC(C)C)NC(=O)[C@H](CCCCN)NC(=O)[C@H](CCCCN)NC(=O)[C@H]([C@@H](C)CC)NC1=O is reported as 2.2 ± 0.1 µM (parasite growth; 3D7; 72 h, Albumax II medium, no serum).
The IC50 of C1=CC(c2ccc[nH]2)=NC1=CNC1CCCCCC1 is reported as over 2.5 µM (parasite growth; 7G8, chloroquine-resistant).
COC1=CC(c2ccc[nH]2)=NC1=CNC12CC3CC(CC(C3)C1)C2 gave an IC50 of 0.0038 µM (parasite growth; 7G8, chloroquine-resistant).
